Literature values that unrelated publications cite.
Protocols differ between the studies behind these lines. Numbers after ± are the reported error. In brackets after ≈: the same amount, converted by molar mass.
UniProt Q9BZL6, sequence (whole entry, looked up): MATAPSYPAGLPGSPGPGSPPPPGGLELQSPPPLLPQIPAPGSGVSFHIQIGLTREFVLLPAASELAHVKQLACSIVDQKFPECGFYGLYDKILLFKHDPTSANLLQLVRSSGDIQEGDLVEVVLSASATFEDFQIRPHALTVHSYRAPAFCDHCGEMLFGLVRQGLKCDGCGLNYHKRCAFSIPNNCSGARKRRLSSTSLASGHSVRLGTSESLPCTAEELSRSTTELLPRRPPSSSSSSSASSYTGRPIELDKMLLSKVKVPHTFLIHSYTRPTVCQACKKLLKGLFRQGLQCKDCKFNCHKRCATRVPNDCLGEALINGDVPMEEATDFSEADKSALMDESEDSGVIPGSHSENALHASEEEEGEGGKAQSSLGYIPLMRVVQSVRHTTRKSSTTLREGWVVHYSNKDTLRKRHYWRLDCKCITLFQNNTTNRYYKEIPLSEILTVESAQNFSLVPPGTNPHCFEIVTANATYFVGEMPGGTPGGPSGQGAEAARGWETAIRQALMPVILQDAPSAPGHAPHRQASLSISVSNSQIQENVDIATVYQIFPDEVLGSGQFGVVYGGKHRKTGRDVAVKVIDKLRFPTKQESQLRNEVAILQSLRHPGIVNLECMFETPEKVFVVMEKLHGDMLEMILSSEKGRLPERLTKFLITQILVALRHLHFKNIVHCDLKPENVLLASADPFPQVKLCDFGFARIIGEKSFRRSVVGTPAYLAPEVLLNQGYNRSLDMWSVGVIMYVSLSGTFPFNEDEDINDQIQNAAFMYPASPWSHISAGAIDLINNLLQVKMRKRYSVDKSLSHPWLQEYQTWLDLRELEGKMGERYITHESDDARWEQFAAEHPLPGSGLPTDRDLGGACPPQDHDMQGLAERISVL

| SMILES | target or system | assay | system | setting | scale | quantity | result |
| --- | --- | --- | --- | --- | --- | --- | --- |
| Nc1nc(O)c2ncn(COC(CO)CO)c2n1 |  |  | dog |  |  | oral bioavailability | 100% |
| O=C(O)CN(CCN(CC(=O)O)CC(=O)O)CC(=O)O |  |  |  | 0.15 M NaCl |  | sum of log KiH | 21.3 |
| CNC(C)C1CCC(N)C(OC2C(N)CC(N)C(OC3OCC(C)(O)C(NC)C3O)C2O)O1 (stereo not shown) | Escherichia coli |  | clinical isolate RKI-No_317/16 |  |  | MIC | 2 µg/mL (≈ 4.19 µM) |
| Nc1cccc2c1C(=O)N(C1CCC(=O)NC1=O)C2=O (stereo not shown) |  |  | relapsed refractory multiple myeloma patients | all grades |  | peripheral neuropathy incidence | 10% |
| N#C[C@@]1(c2ccc3c(N)ncnn23)O[C@H](CO)[C@@H](O)[C@H]1O |  |  | dog, plasma | intravenous, 2 mg/kg, 8 h, solution |  | plasma concentration | 198 ng/mL |
| NC1(C(=O)N[C@@H](CCO)c2ccc(Cl)cc2)CCN(c2nc[nH]c3nccc2-3)CC1 |  |  | human |  |  | renal clearance fraction of total | 21% |
| C[C@@]1(O)CCC[C@H]1n1c(=O)c(C(F)F)cc2cnc(NC3CCN(S(C)(=O)=O)CC3)nc21 |  |  | mouse | oral, 50 twice daily |  | free C24h | 32 nM |
| CCCCc1oc2ccc(NS(C)(=O)=O)cc2c1C(=O)c1ccc(OCCCN(CCCC)CCCC)cc1 |  |  | human, plasma | typical therapeutic dosing |  | steady-state plasma concentration | 0.15 to 0.3 µM |
| Oc1cc(Cl)ccc1Oc1ccc(Cl)cc1Cl |  |  | human liver | 1 µM |  | sulfonation rate | 10 pmol/min/mg protein |
| CCCC(C)C(=O)O (stereo not shown) |  | scoliosis or lordosis | zebrafish embryo | nominal concentration |  | EC10 | 393 µM |
| Cc1ccc([C@@H]2O[C@H](CO)[C@@H](O)[C@H](O)[C@H]2O)cc1Cc1ccc(-c2ccc(F)cc2)s1 |  |  | human, preserved kidney function | 300 mg, steady state, mean |  | AUC(0-24) | 19300 ng·h/mL |
| CO[C@H]1/C=C/O[C@@]2(C)Oc3c(C)c(O)c4c(O)c(c(/C=N/N5CCN(C)CC5)c(O)c4c3C2=O)NC(=O)/C(C)=C\C=C\[C@H](C)[C@H](O)[C@@H](C)[C@@H](O)[C@@H](C)[C@H](OC(C)=O)[C@@H]1C |  | perpetrator | human | dose not given, added: simvastatin as victim drug |  | victim drug AUC decrease | 87% |
| Cc1cc(Nc2ccc(C(F)(F)F)c(F)c2)n2ncnc2n1 |  |  |  |  |  | logD | 3.8 |
| CC(C)n1c(Nc2cccnc2)nc2cnc(Nc3ccc(N4CCN(C)CC4)cc3)nc21 |  |  | human relapsed or refractory AML | oral, 20 to 310 mg/day, monotherapy |  | tolerability | not toxic |
| O=C(O)CN(CCN(CC(=O)O)CC(=O)O)CCN(CC(=O)O)CC(=O)O |  | pH-potentiometry, item: logK3H | 0.1 M NaClO4 | 25 °C |  | protonation constant (log) | 4.13 |
| CC1(C)S[C@@H]2[C@H](NC(=O)[C@H](N)c3ccccc3)C(=O)N2[C@H]1C(=O)O | Escherichia coli |  | clinical isolate RKI-No_525/16 |  |  | MIC | ≤ 4 µg/mL |
| CC(C)Nc1nc2cc(Cl)c(Cl)cc2n1[C@H]1O[C@@H](CO)[C@H](O)[C@@H]1O |  |  | human CMV transplant recipients | 400 mg twice daily |  | time to steady-state exposure | ≤ 2 days |
| CC(C)(CO)c1cc2cc(NC(=O)C3(c4ccc5c(c4)OC(F)(F)O5)CC3)c(F)cc2n1C[C@@H](O)CO |  |  | microsomal incubation | CYP3A4 Ki |  | fraction unbound | 0.876 |
| COc1cc2c(Oc3ccc4[nH]c(C)cc4c3F)ccnc2cc1OCC1(N)CC1 |  |  | Beagle dog | oral, 0.40 mg/kg, 8 h, 13 weeks dosing |  | AUC(0-t) | 195 ng·h/mL |
| O=C1Nc2c(C(F)(F)F)cccc2[C@@]1(c1ccc(O)cc1)c1ccc(OC(F)(F)F)cc1 |  |  | dog | oral |  | tolerated dose | > 150 mg/kg |
| Cc1nccn1CC1CCc2c(c3ccccc3n2C)C1=O (stereo not shown) |  |  | rat | 4 mg/kg, without tariquidar |  | clearance | 50 ± 13.3 mL/min/kg |
| COc1ncc(-c2nc3c(n2C(C)C)[C@H](c2ccc(Cl)cc2)N(c2cc(Cl)cn(C)c2=O)C3=O)c(OC)n1 |  |  | patients with solid tumours or lymphomas | dose not given, grade ≥3, first-in-human trials |  | patients with related neutropenia | 23% |
| CN(C(=O)n1cnc(-c2ccc[n+]([O-])c2)c1)C1CCCCC1 |  |  | rat | oral, 6 months, repeated dosing |  | NOAEL | 10 mg/kg/day |
| Cc1c(C(=O)O)ccc2c3n(nc12)[C@@H]1[C@H](C3)N(CC2CC2)[C@@]2(C(=O)Nc3cc(Cl)ccc32)[C@H]1c1cccc(Cl)c1F |  |  | human patients | dose not given, phase I trial | reference: patients | neutropenia, grade ≥3, treatment related | 24.1% |
| Nc1cc(C(F)(F)F)c(-c2nc(N3CCOCC3)nc(N3CCOCC3)n2)cn1 | Serine/threonine-protein kinase D2 (PRKD2, Homo sapiens, UniProt Q9BZL6) | enzyme activity |  | 10 µM | reference: untreated | remaining activity | 90% |
